{"data": "Experimental data gathered from unrelated publications", "note": "Each line is one published result; not all experiments were run side by side. ± gives the spread as reported."}
{"SMILES": "C[C@H]1CN(C(=O)CC#N)[C@]12CCN(c1ncnc3[nH]ccc13)C2", "system": "healthy Japanese males, plasma", "conditions": "oral, 25 mg single dose", "half-life": "3.8 h"}
{"SMILES": "O=C(Oc1coc(CSc2ncccn2)cc1=O)c1ccc([N+](=O)[O-])cc1", "system": "mouse plasma", "conditions": "37 °C", "half-life": "0.035 h"}
{"SMILES": "C[C@@H](N)C1CCN(S(=O)(=O)c2cccc3cnccc23)CC1", "system": "healthy volunteers, plasma", "conditions": "oral, 150 mg, fed, single dose", "half-life": "2.05 h"}
{"SMILES": "CC(C)C[C@H](NC(=O)[C@@H](N)[C@@H](C)O)C(=O)N[C@@H](CCC(N)=O)C(=O)N1CCC[C@H]1C(=O)N1CCC[C@H]1C(=O)N[C@@H](C)C(=O)N[C@@H](CO)C(=O)N[C@@H](CO)C(=O)N[C@@H](CCCNC(=N)N)C(=O)N[C@H](CCCNC(=N)N)C(=O)N[C@@H](CCCNC(=N)N)C(=O)N[C@@H](Cc1c[nH]cn1)C(=O)N[C@@H](Cc1ccccc1)C(=O)N[C@@H](Cc1c[nH]cn1)C(=O)N[C@@H](Cc1c[nH]cn1)C(=O)N[C@@H](C)C(=O)N[C@@H](CC(C)C)C(=O)N1CCC[C@H]1C(=O)N1CCC[C@H]1C(=O)N[C@H](C)C(=O)N[C@@H](CCCNC(=N)N)C(=O)O", "assay": "LC-MS", "system": "mouse plasma 100%", "conditions": "37 °C", "half-life": "> 2 h"}
{"SMILES": "Cc1ccc(OCCN)cc1C(=O)N[C@H](C)c1cccc(-c2ccc(O)cc2)c1", "system": "mouse liver microsomes", "conditions": "1 µM", "half-life": "> 0.833 h"}
{"SMILES": "O=C1Nc2c(C(F)(F)F)cccc2[C@@]1(c1ccc(O)cc1)N1CCCC(F)(F)C1", "system": "simulated gastric fluid with pepsin", "conditions": "100 µM, pH 1.2, 37 °C", "half-life": "0.167 to 1.28 h"}
{"SMILES": "CC[C@H](C)C(=O)O[C@H]1C[C@@H](C)C=C2C=C[C@H](C)[C@H](CC[C@@H]3C[C@@H](O)CC(=O)O3)[C@H]21", "system": "Beagle dog whole blood", "conditions": "5 µM", "half-life": "2.71 h"}
{"SMILES": "CC1=NN(/C(=N\\c2ccccc2)Nc2nnc(C)s2)C(c2ccc(C)cc2)S1 (stereo not drawn)", "assay": "plasma stability", "system": "human plasma", "half-life": "0.0883 h"}
{"SMILES": "CCCCCCCCCCCCCCCC(=O)N[C@@H](CCC(=O)NCCCC[C@@H]1NC(=O)[C@H]([C@@H](C)CC)NC(=O)[C@@H](NC(=O)[C@@H]2CCCN2C(=O)[C@H](Cc2ccccc2)NC(=O)[C@H](Cc2c[nH]cn2)NC(=O)[C@@H](NC(=O)[C@H](CC(=O)O)NC(=O)CC(C)C)[C@@H](C)O)CSSC[C@@H](C(=O)N[C@@H](CCCCN)C(N)=O)NC(=O)CNC(=O)[C@H](CCCCN)NC(=O)[C@H](CO)NC(=O)[C@H](CCCNC(=N)N)NC(=O)[C@@H]2CCCN2C(=O)[C@H](CCC(=O)O)NC(=O)[C@H](Cc2ccccc2)NC1=O)C(=O)O", "system": "healthy volunteers, plasma", "conditions": "subcutaneous, 45 mg single, lyophilised formulation", "half-life": "33 ± 18.4 h"}
{"SMILES": "Clc1ccc(C(c2ccccc2Cl)C(Cl)Cl)cc1 (stereo not drawn)", "system": "human, plasma", "half-life": "~936 h"}
{"SMILES": "C[C@@H](O)[C@H](NC(=O)[C@H](Cc1ccc(O)cc1)NC(=O)[C@H](Cc1ccc(O)cc1)NC(=O)[C@H](CO)NC(=O)[C@H](CCCNC(=N)N)NC(=O)[C@H](Cc1c[nH]cn1)NC(=O)[C@@H](N)Cc1c[nH]c2ccccc12)C(=O)N[C@@H](Cc1c[nH]c2ccccc12)C(=O)N[C@@H](CC(N)=O)C(N)=O", "system": "human serum 50%", "conditions": "20 µM, 37 °C", "half-life": "0.25 to 0.333 h"}
{"SMILES": "N#Cc1ccc(Nc2nc(N)cc(Oc3c(F)cc(-c4ccc(C#N)cc4)cc3F)n2)cc1", "system": "human liver microsomes", "conditions": "1 µM", "half-life": "1.24 h"}
{"SMILES": "OCc1ccc(-c2nn(Cc3ccccc3)c3ccccc23)o1", "system": "mouse liver microsomes", "conditions": "with: NADH", "half-life": "0.0467 h"}
{"SMILES": "Nc1cccc2c1CN(C1CCC(=O)NC1=O)C2=O (stereo not drawn)", "assay": "metabolic stability", "system": "liver microsomes", "conditions": "2 µM", "half-life": "> 6 h"}
{"SMILES": "COCCOc1cnc2ccn([C@H](C)c3nnc4c(F)cc(-c5cnn(C)c5)cn34)c(=O)c2c1", "system": "patients, plasma", "conditions": "oral, 400 mg once daily, day 1", "half-life": "5.9 h"}
{"SMILES": "C=CC(=O)NC1CCN(c2ncc3ncnc(Nc4ccc(Oc5ccc6c(c5)ncn6C)c(C)c4)c3n2)CC1", "system": "healthy men", "conditions": "oral, 60 mg single dose", "half-life": "38.7 h"}
{"SMILES": "O=C(O)c1cc(O)c(O)c(O)c1", "assay": "LC-MS/MS", "system": "male Ross broilers, serum", "conditions": "oral, 0.49 mg/kg BW", "half-life": "2.76 ± 1.75 h"}
{"SMILES": "C[C@H](NC(=O)/C(C#N)=C/c1cccc(Br)n1)c1ccccc1", "assay": "LC-MS/MS", "system": "patients, plasma", "conditions": "oral, 4 mg/kg, cycle 1 day 8", "half-life": "5 h"}
{"SMILES": "C=CC[C@@H]1/C=C(\\C)C[C@H](C)C[C@H](OC)[C@H]2O[C@@](O)(C(=O)C(=O)N3CCCC[C@H]3C(=O)O[C@H](/C(C)=C/[C@@H]3CC[C@@H](O)[C@H](OC)C3)[C@H](C)[C@@H](O)CC1=O)[C@H](C)C[C@@H]2OC", "system": "pooled human liver microsomes", "conditions": "pH 7.4", "half-life": "0.0423 h"}
{"SMILES": "Brc1cncs1", "system": "PBS with 5% acetonitrile", "conditions": "250 µM, pH 7.4, no glutathione", "half-life": "32.8 h"}
{"SMILES": "CC(=O)O[C@@]12CO[C@@H]1C[C@H](O)[C@@]1(C)C(=O)[C@H](O)C3=C(C)[C@@H](OC(=O)[C@H](O)[C@@H](NC(=O)OC(C)(C)C)c4ccccc4)C[C@@](O)([C@@H](OC(=O)c4ccccc4)[C@H]21)C3(C)C", "system": "patients, plasma", "conditions": "intravenous, 75 mg/m^2, without co-administered drug", "half-life": "15 h"}
{"SMILES": "Cc1ccc2[nH]c(=S)n(Cc3cccnc3)c(=O)c2c1", "assay": "plasma stability", "system": "mouse plasma", "half-life": "> 6.22 h"}
{"SMILES": "CC(C)C(=O)Nc1ccc([N+](=O)[O-])c(C(F)(F)F)c1", "assay": "substrate depletion", "system": "phenobarbital/β-naphthoflavone-induced rat liver microsomes", "conditions": "1 µM, pH 7.4, 37 °C, with: NADPH", "half-life": "0.0317 h"}
{"SMILES": "Oc1ccc([C@@H](O)c2cc(-c3ncnc4cc(N5CCOCC5)ccc34)c(F)cc2Cl)nn1", "assay": "geometric mean", "system": "healthy volunteers, plasma", "conditions": "oral, 100 mg, fasted oral suspension", "half-life": "3.8 h"}
{"SMILES": "COc1ccc(-n2nc(C(=O)NC(=O)OCc3cc(C(=O)O)ccc3OP(=O)(O)O)c3c2C(=O)N(c2ccc(N4CCCCC4=O)cc2)CC3)cc1", "system": "simulated gastric fluid", "conditions": "10 µM, 2 h incubation, pH 1.2", "half-life": "> 2 h"}
{"SMILES": "CCCCC[C@H](O)CC[C@@H]1[C@H]2Cc3cccc(OCC(=O)O)c3C[C@H]2C[C@H]1O", "assay": "LC-MS/MS", "system": "Japanese PAH patients, male, plasma", "conditions": "inhaled, 54 µg, geometric mean", "half-life": "0.67 h"}
{"SMILES": "C[C@H]1[C@H]2N(C(=O)CN(C)N2C(=O)NCc2ccccc2)[C@@H](Cc2ccc(OP(=O)(O)O)cc2)C(=O)N1Cc1cccc2cccnc12", "system": "patients, plasma", "conditions": "intravenous infusion, 140 mg/m2 over 4 h, mean", "half-life": "0.5 h"}
{"SMILES": "NC(=O)Nc1ccc(OC(F)F)cc1", "system": "PBS with 10% acetonitrile", "conditions": "250 µM, pH 7.4, with: GSH 5 mM", "half-life": "≥ 240 h"}
{"SMILES": "CCN1CCN(Cc2ccc(Nc3nc4ccc(Oc5ccnc(NC(=O)C6CCN(C)CC6)c5)cc4n3C)cc2C(F)(F)F)CC1", "system": "plasma", "half-life": "~5 h"}
{"SMILES": "N[C@@H](CC(=O)N1CCc2c(nc(C(F)(F)F)nc2C(F)(F)F)C1)CN1CC(F)(F)CCC1=O", "system": "healthy Korean adults, fasted, plasma", "conditions": "oral, 50 mg single dose, fixed-dose combination tablet, with: enavogliflozin 0.3 mg", "half-life": "18.7 ± 2.54 h"}
{"SMILES": "CC(=O)O[C@H]1C(=O)[C@@]2(C)[C@H]([C@H](OC(=O)c3ccccc3)[C@]3(O)C[C@H](OC(=O)[C@H](OC(=O)OCc4cc(C(=O)O)ccc4OP(=O)(O)O)[C@@H](NC(=O)c4ccccc4)c4ccccc4)C(C)=C1C3(C)C)[C@]1(OC(C)=O)CO[C@@H]1C[C@@H]2O", "system": "HBSS", "conditions": "10 µM, 2 h incubation, pH 6.5", "half-life": "> 2 h"}
{"SMILES": "O=C(ON1C(=O)CCC1=O)c1cc(C(F)(F)F)cc(C(F)(F)F)c1", "assay": "HPLC-MS", "system": "BBS buffer", "conditions": "pH 10.2", "half-life": "< 0.0167 h"}
{"SMILES": "COC(=O)[C@H](N)CSN=O", "system": "PBS", "conditions": "10 µM, pH 3.25, room temperature, dark", "half-life": "1.6 ± 0.198 h"}
{"SMILES": "Cc1ccc(NC(=O)c2ccc(CN3CCN(C)CC3)cc2)cc1Nc1nccc(-c2cncc(-c3oncc3C)c2)n1", "system": "Parkinson's disease patients, plasma", "conditions": "oral, 100 mg/day, 7 days, steady state", "half-life": "24.6 ± 4.7 h"}
{"SMILES": "COc1ccc([C@@H](O)c2cc(-c3ncnc4cc(N5CCOCC5)ccc34)c(F)cc2Cl)nn1", "assay": "geometric mean", "system": "healthy volunteers, plasma", "conditions": "oral, 100 mg, high-fat fed tablet", "half-life": "3.34 h"}
{"SMILES": "CCCCCCCCCC(=O)N[C@@H](Cc1c[nH]c2ccccc12)C(=O)N[C@H](CC(N)=O)C(=O)N[C@@H](CC(=O)O)C(=O)N[C@@H]1C(=O)NCC(=O)N[C@@H](CCCN)C(=O)N[C@@H](CC(=O)O)C(=O)N[C@H](C)C(=O)N[C@@H](CC(=O)O)C(=O)NCC(=O)N[C@H](CO)C(=O)N[C@@H]([C@H](C)CC(=O)O)C(=O)N[C@@H](CC(=O)c2ccccc2N)C(=O)O[C@@H]1C", "system": "human plasma", "conditions": "1 µM, up to 240 min, pH 7.4, 37 °C", "half-life": "> 4 h"}
{"SMILES": "CCOc1c([C@H](C)n2nc(C)c3c(N)ncnc32)cc(Cl)c(F)c1[C@@H]1CNC(=O)C1", "system": "rat liver microsomes", "conditions": "0.5 µM, pH 7.4, 37 °C, with: NADPH 1 mM", "half-life": "9.52 h"}
{"SMILES": "O=c1c2ccccc2sn1-c1ccc(F)cc1", "system": "mouse liver microsomes", "conditions": "with: NADPH", "half-life": "< 1 h"}
{"SMILES": "Cc1cc(=O)n(-c2ccccc2)n1C", "system": "induced rat liver microsomes", "conditions": "1 µM, pH 7.4", "half-life": "> 2 h"}
{"SMILES": "C=C1CN2CCC[C@@]2(COc2nc(N3CCN(C(=O)/C=C/c4cc(CNC)c(C)cn4)C[C@@H]3C)c3cc(Cl)c(-c4nc(N)cc(C)c4C(F)(F)F)c(F)c3n2)C1", "conditions": "1 µM, pH 7.4, with: 5 mM cysteine", "half-life": "> 9 h"}
{"SMILES": "CC1(C)NC(=O)N(c2ccc([N+](=O)[O-])c(C(F)(F)F)c2)C1=O", "assay": "substrate depletion", "system": "phenobarbital/β-naphthoflavone-induced rat liver microsomes", "conditions": "1 µM, pH 7.4, 37 °C, with: NADPH", "half-life": "1.05 h"}
{"SMILES": "CN[C@H](CC(C)C)C(=O)N[C@H]1C(=O)N[C@@H](CC(N)=O)C(=O)N[C@H]2C(=O)N[C@H]3C(=O)N[C@H](C(=O)N[C@H](C(=O)O)c4cc(O)cc(O)c4-c4cc3ccc4O)[C@H](O)c3ccc(c(Cl)c3)Oc3cc2cc(c3O[C@@H]2O[C@H](CO)[C@@H](O)[C@H](O)[C@H]2O[C@H]2C[C@](C)(N)[C@H](O)[C@H](C)O2)Oc2ccc(cc2Cl)[C@H]1O", "system": "guinea pig, tissue cage fluid", "conditions": "local, 10 mg/mL, poloxamer 407 hydrogel", "half-life": "5.7 h"}
{"note": "Excerpt of the above:"}
{"SMILES": "CCOc1c([C@H](C)n2nc(C)c3c(N)ncnc32)cc(Cl)c(F)c1[C@@H]1CNC(=O)C1", "system": "rat liver microsomes", "conditions": "0.5 µM, pH 7.4, 37 °C, with: NADPH 1 mM", "half-life": "9.52 h"}
{"SMILES": "CCN1CCN(Cc2ccc(Nc3nc4ccc(Oc5ccnc(NC(=O)C6CCN(C)CC6)c5)cc4n3C)cc2C(F)(F)F)CC1", "system": "plasma", "half-life": "~5 h"}
{"SMILES": "O=C(Oc1coc(CSc2ncccn2)cc1=O)c1ccc([N+](=O)[O-])cc1", "system": "mouse plasma", "conditions": "37 °C", "half-life": "0.035 h"}
{"SMILES": "Cc1cc(=O)n(-c2ccccc2)n1C", "system": "induced rat liver microsomes", "conditions": "1 µM, pH 7.4", "half-life": "> 2 h"}
{"SMILES": "CCCCC[C@H](O)CC[C@@H]1[C@H]2Cc3cccc(OCC(=O)O)c3C[C@H]2C[C@H]1O", "assay": "LC-MS/MS", "system": "Japanese PAH patients, male, plasma", "conditions": "inhaled, 54 µg, geometric mean", "half-life": "0.67 h"}
